Published values pooled from the literature.
Every numbered part comes from another study and shows a few of its results, in no order. Changes are numbered by the printed parent chain.

Block 1 — method: RNA Bind-n-Seq; molecule type: RNA; medium: in vitro; tested at: 365 nM; reference: no-protein control; reading: higher = stronger binding; quantity: RBNS enrichment (R)
Target: RNA binding protein fox-1 homolog 2, RRM domain, GST-SBP tag (RBFOX2, Homo sapiens, UniProt O43251-10, residues 100-194)
Notes: natural RNA segment, single round, ends assumed
All sequences stand within: GGGAGUUCUACAGUCCGACGAUC … UGGAAUUCUCGGGUGCCAA
Residues (chain): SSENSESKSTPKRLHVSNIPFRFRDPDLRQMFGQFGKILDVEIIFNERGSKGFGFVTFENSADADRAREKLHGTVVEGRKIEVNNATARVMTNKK
UGAGGAUGGAAAGAGCCGUAAUGACGUUGGCCUUGCCGUGUUCCUUCUCCUCAGCGCCACACUCACAUAUUUCUCUGCUUUGGUUCUACAAUCUGUUGUUGAGUUCCCCC: 0.459
CUAAGAAAGCUGAACAAAGGGAGAGACGAGAGCGCCUGAAGCCAGGAGCUCCUUUACUAUCUUUCUCAAAAGGGUUGUUAGACACAAACCAAGUCAUCAAGGCCCCGCUC: 0.284
CAGGGGACUCGCCUACUGAGAGCUGUCAUUGACUUACUGUCUAAAGCCCUGUGCUCCGUGACUCCCACGCAUGAACUCAUCAGGGCCGUGUCUACUCCUUAAUUGUCACA: 3.7
GCAGACCUAUUGUGGGUAUAGGUAUUUUCUUCCUGGGGAAGAAUUCAGUUCCCGUCUCAGCUGUACUUUUGUGGGCCUGUCAUCUUGAUGACCAGAAUGAAAGCUUGCUC: 4.34
UCUGCAGUAGAUUAUAUUUAUCCUAAUCUAUUGAUAUUCUGUUGAUUUGUUUUAAGAGAUAGAACUCUAUUUUUUUGAACUUCCAGAGAAUUGCAUUCAUGGCUUCCACU: 0.555
UCCCUUAGCUAUAUGAAUUUUGGCAUGUUUCAGAGAGAUCAGUAAAUAAAAUAUUAGAUAAAAUAUAUAUUGUUUGUGUUGAAGUUUUUAACUUUUCAGAAAUUGUUGAU: 2.3
GAAGUUAUGUGUGAAUGUUGUCAAGUCCUGAAGUCCUAUGAUGCACUGUGGCCCUAGAAAACGAAGAUGAAGCCUCCACUGACCACUGUGUCCUCUCUGACUUGGCCAGC: 1.46
GGUAUGACUUUAUGUGUGGCAAAAACCCACAUUACCAAAGUAGUUUUUAACUACUGUAAUUUGUAAAUAAGUGUUGUGGCAGGUGGGAACCUUUAAAAGAUCAGUAAGAU: 0.558
GUUGAGACCCCAGACUCUAGCCACACACAUGCCACAGACAUGCCAGGGAGUGGCAAAGCACUGACUCCUGAGCUCCCUUCCUCACUAGGACUCCAGUGUGACCCUGCACU: 0.451
CAGCAGGCAACCUGCCCGUCUGUACAAAAAACUCAAAGGGCUGAGAUGAACGUCUUUCCUCUCCUGCCUCCCAUGAGACAGUCUCCUAGGAAUUCUUGGGGAAGUUUGGC: 0.224
CAGUACUACAAAGUACAGAAAUUCCUAGAAUAUAAUCAUUCUCACAGAAUAGAUACCAAGAAAAAGCUAUCUAUUAGGUUUCUAAUUCCAGGACCUAGAUAGACAAGUAC: 0.513
GUAUCUGAUGUUCAUUUAUUCCCAUGUUCUUGUGUGUCACAGUUCAGCCAGUUUUGGUUUAUGCCUAGAGCUACUUCAAGGAACUAGACUAAUUAGCUAUAUAGGCCCAG: 0.373

Block 2 — method: RNA Bind-n-Seq; molecule type: RNA; medium: in vitro; tested at: 200 nM; notes: whole 134-nt RNA, ends assumed; together with: 150 mM KCl; reference: input library; reading: higher = stronger binding; quantity: log2 enrichment
Target: Fragile X messenger ribonucleoprotein 1, C-terminal low-complexity region (Fmr1, Mus musculus, UniProt P35922)
All sequences stand within: GGGAGUUCUACAGUCCGACGAUC … UGGAAUUCUCGGGUGUCAAGG
UAACUUUAGAGGAGGAUCUGAUGGAUAUGGCAGUGGACGUGGAAUUGGGGAUGGCUAUAAUGGGUAUGGAGGAGGACCUGGAGGUGGCAA: 0.286
CUCAAGUCCUGUGCUACACAUCGUAUGUACCGAAUCGGUUUGGUUUGGAAAGGAAAGUAUUAUGUUACGCCGUUCGGAUCUGCACUUCCA: -0.304
AGUCCUGUGCUACACAUCGUAUGUACCGAAUCGGGAAAGGGAAAAAGGGAAAAAGGGAAAGUAUUAUGUUACGCCGUUCGGAUCUGCACU: -0.198
CUCAAGUCCUGUGCUACACAUCGUAUGUACCGAAUCGGGUUGGGGUUGGUUGGAAAGUAUUAUGUUACGCCGUUCGGAUCUGCACUUCCA: 0.327
UCCUGUGCUACACAUCGUAUGUACCGAAUCAAAUUUUUUUAAACCCCCCCAAACCCAAAAAAGUAUUAUGUUACGCCGUUCGGAUCUGCA: 0.0497
UGGCCCUGGUGGCAUGCGGGGAGGAAGAGUUGGCCUCAUGGAUCGUGGUGGUCCCGGUGGAAUGUUCAGAGGUGGCCGUGGUGGAGACAG: -0.104
CUGUGCUACACAUCGUAUGUACCGAAUCAAACCCCCCCAAAUUUUUUUAAACCCCCCCAAAAAAGUAUUAUGUUACGCCGUUCGGAUCUG: 0.358
GUCCUGUGCUACACAUCGUAUGUACCGAAUCAAAUUUUUAAAUUUUUUUAAACCCAAAAAAGUAUUAUGUUACGCCGUUCGGAUCUGCAC: 0.0482
CAAGUCCUGUGCUACACAUCGUAUGUACCGAAUCGGAAAAAGGUGGUUUUUUUGGAAAGUAUUAUGUUACGCCGUUCGGAUCUGCACUUC: -0.81
GUCCUGUGCUACACAUCGUAUGUACCGAAUCGGGAAAAAGGGGAAAAAGGAAAAAGGGGAAAGUAUUAUGUUACGCCGUUCGGAUCUGCA: -0.228
ACCAUGCAGGUGGGCAUCUUUGGGAAGUGGGGCAAGGGGGGGAUAGGGAGGGGGGUAACACUUUGGGAACAGGUGGUCCCAGGUCCUUUC: 0.71
UCAUGGCUAUCAUUAGCCACAGGUACUGCUGAUUAUAAGGCCAGUAAAAUUUUAGUACCUGGAGGUUUGACUCUAAUUUUUGCACUGAUG: -1.69
GUCCUGUGCUACACAUCGUAUGUACCGAAUCGGGUUUUUUUGGGAAAGGGAAAAAGGGAAAGUAUUAUGUUACGCCGUUCGGAUCUGCAC: -0.356
ACCAAGCAGGUGGGCAUCUUUGGGAAGUGGGGCAAGGGGGGGAUAGGGAGGGGGGUAACACUUUGGGAACAGGUGGUCCCAGGUCGUUUC: 0.567

Block 3 — method: competition protein-binding microarray; molecule type: double-stranded DNA, one strand shown; medium: in vitro; tested at: 2 µM; together with: Pho4 competitor, 0.05 µM; reading: higher = stronger binding; quantity: fluorescence intensity; all sequences stand within: … GTCTTGATTCGCTTGACGCTGCTG
Target: Centromere-binding protein 1, full length, His-tagged (CBF1, Saccharomyces cerevisiae, UniProt P17106, residues 1-351)
UniProt P17106, sequence (whole entry, looked up): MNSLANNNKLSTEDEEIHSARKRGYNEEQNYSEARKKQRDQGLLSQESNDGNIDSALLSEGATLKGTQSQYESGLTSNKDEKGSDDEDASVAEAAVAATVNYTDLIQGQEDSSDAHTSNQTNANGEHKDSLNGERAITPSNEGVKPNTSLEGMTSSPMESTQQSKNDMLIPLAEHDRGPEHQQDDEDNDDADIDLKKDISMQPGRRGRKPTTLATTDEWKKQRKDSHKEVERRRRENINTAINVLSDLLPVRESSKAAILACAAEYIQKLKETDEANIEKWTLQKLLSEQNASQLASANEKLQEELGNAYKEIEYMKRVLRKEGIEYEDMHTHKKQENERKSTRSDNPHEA
Notes: whole 60-bp probe, lowest competitor level
AGCATATCCGCTGTTCACATGATACGGTCTAGGATT: 282 a.u.
ATTGCTCATTGAAAGCACGTGTTCCTTCAAATGAGA: 3400 a.u.
AAAGCGGTAATTTGTCACATAACTTCACATATCTAT: 90 a.u.
AAAGCGGTAATTTTTCACGTGCTCTCACATATCTAT: 1880 a.u.
TTTTCCGCGCGAAAGCACGTTACCCGGACCCCGTCT: 127 a.u.
AGTAGTTTAAAATTTCACGTGTACTTTCCCTGTTTT: 968 a.u.
AAATTACTAAGTTGTCACCAAACTTACCCCGTATGA: 73.8 a.u.
CATGGCCTCAATGGCCGCGTGTCCAGAGAGTGGACT: 60.8 a.u.
GTCTTGTCTCATTTTCACGTGTGTTTCCCCACTTCA: 605 a.u.
CAATAGCAGCGGCGGCATGATCTTGAGTCGAATAGA: 74.5 a.u.
TGCGCAACAACTTTTCACGTGTGCTTATGTCTAGAA: 544 a.u.
CGTCCTAGTGATTTTCACGTGGATTCCATGAGGAAG: 619 a.u.
CAATGCTTTCCCGGCCACGTCGACATGGAACATCTT: 67.9 a.u.
TACGACATTGGCAATCACGTGTTGGGCTGCTCCTCC: 6000 a.u.
TACGACGAAGCTTTGCACGTGTAGGAAAGAGGAAAT: 862 a.u.
AAGAGCTTTCTATTACATGTGGGAAGACTAATATAG: 84.6 a.u.
TGCTATCCCGGCGAGCCCGTGGCCGAGGACCTCGCT: 42 a.u.
TAAAAAATTTTCGGCCACGTAGTTGTATACTTTTGT: 88.6 a.u.
TCGTCCCGTACCGACCACGTGTTTTCCACCTGTAAT: 1590 a.u.
TGCGCAACAACTTGCACTGTGGGTGTATGTCTAGAA: 71.7 a.u.
TGCTGGCCAAACTGTGTCGTGGGACGCTGCTGTTGG: 62.6 a.u.

Block 4 — method: protein binding microarray; molecule type: double-stranded DNA, one strand shown; medium: in vitro; tested at: not given; reference: not given; reading: higher = stronger binding; quantity: E-score
Target: Histone acetyltransferase KAT6A, both winged helices, GST fusion (KAT6A, Homo sapiens, UniProt Q92794, residues 1-181)
Notes: 8-mer, flanks averaged, mean of 2 arrays, mostly near background
Residues (chain): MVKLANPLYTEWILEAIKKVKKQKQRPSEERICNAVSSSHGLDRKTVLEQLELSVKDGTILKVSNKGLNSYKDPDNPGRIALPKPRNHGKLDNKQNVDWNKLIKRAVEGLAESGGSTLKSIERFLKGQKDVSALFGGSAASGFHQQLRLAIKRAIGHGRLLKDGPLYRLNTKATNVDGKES
GATACAGA: -0.155
AGGTCTGG: -0.177
AGCCGATG: 0.0645
GTGCGGAA: 0.178
CCTATAAC: -0.18
CCACGCCG: 0.243
GACAAGCA: -0.0245
GCGGACAA: 0.138
AAAGTCTC: -0.148
TCACGCGA: 0.193
AGCCCGAT: -0.0293
CGGGAAAG: 0.164
GCAACATA: -0.0482
ATCAGCAG: 0.0383
AGGAGGCC: -0.197
CGCCTTGC: 0.0644
ACGGGTTA: 0.268
GTGCACGA: -0.0334

Block 5 — method: DHFR PCA, deep sequencing; medium: yeast; together with: (+)-ABA 17 µM; reference: wild-type fitted maximum; reading: higher = stronger binding; quantity: relative binding score
Target: ABI1, truncated, D143A, DHFR fusion (Arabidopsis thaliana)
Notes: methotrexate growth selection, single substitutions
Parent: PYL1, truncated, DHFR fusion (Arabidopsis thaliana); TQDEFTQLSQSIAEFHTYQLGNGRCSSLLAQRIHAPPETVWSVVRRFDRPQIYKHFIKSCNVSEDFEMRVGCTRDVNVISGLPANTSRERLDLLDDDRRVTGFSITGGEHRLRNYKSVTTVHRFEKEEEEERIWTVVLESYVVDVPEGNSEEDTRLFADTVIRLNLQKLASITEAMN; partner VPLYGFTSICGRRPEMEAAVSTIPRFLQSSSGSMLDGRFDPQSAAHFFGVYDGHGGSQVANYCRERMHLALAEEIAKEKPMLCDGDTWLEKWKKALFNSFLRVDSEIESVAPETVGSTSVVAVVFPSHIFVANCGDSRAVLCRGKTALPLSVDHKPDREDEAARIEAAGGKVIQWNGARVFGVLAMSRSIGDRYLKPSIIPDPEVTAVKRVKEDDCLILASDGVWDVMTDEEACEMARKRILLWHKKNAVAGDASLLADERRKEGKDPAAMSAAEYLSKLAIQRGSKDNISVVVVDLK
E14R: 65.8%
Q7S: 83.5%
V145M: 41.1%
V143A: 34.5%
T160V: 42.8%
S80F: 27.3%
F124L: 101%
T86Q: 52.5%
L20Q: 88.1%
E129R: 79.2%
P37F: 10%
L94M: 74.3%
P83S: 36.5%
E130D: 92.2%
G23H: 74%
F66M: 73.2%
F47W: 40.8%
E128S: 89.6%
T154E: -1.82%
T73S: 74%
